# Published values pooled from the literature.
# Every numbered part comes from another study and shows a few of its results, in no order.

# Set 1
# Target: Sal-like protein 4, full length isoform A (SALL4, Homo sapiens, UniProt Q9UJQ4, residues 1-1053)
# Chain of UniProt Q9UJQ4 (whole entry, looked up): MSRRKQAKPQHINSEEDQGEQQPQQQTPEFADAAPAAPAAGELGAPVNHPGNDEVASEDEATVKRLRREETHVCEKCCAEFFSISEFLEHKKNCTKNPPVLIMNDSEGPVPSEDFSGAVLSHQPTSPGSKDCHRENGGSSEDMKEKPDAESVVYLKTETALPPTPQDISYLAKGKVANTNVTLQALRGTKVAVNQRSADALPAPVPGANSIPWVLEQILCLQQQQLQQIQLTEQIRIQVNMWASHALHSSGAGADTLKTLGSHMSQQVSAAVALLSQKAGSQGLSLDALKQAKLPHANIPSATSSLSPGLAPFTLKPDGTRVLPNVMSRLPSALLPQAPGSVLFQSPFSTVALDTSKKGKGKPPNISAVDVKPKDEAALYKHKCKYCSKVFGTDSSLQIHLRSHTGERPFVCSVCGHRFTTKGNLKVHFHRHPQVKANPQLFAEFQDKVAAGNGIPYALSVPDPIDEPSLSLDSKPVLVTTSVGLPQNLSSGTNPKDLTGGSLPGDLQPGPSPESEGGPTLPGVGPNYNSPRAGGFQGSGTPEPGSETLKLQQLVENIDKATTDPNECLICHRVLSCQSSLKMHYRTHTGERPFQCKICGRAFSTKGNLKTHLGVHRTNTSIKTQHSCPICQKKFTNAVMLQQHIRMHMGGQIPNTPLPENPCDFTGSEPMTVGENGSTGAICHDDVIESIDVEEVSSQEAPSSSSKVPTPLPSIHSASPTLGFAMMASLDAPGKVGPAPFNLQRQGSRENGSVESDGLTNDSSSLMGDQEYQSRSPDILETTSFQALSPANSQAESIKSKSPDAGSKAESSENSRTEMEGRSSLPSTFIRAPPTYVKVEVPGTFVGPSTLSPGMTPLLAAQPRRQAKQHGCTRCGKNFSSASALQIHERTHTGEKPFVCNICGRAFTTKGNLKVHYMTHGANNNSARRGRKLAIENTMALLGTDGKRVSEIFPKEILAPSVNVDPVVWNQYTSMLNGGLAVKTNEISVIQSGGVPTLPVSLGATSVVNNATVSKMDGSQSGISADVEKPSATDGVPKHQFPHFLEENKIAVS
# Technique: universal PBM
# Form: double-stranded DNA, one strand shown
# Medium: in vitro
# Tested at: 600 nM
# Notes: 8-mer, flanks averaged, mean of replicates
# Reading: higher = stronger binding
Oligonucleotide,E-score
CTGCGAAA,0.0129
TAGACTAA,0.0612
GCGTGACC,-0.289
AAATGGCG,0.0142
ACATGATA,0.321
TACGCTAA,0.152
AACACCCT,-0.102
AAACAGCG,0.134
GCGCCCGA,-0.409
CGGCGGAC,-0.341
GAGGCACC,-0.363
TACCAGAA,0.106
GGAGGCCC,-0.414
GTGATACA,0.124
GAGTCCCC,-0.396
ATTCAGCA,0.12
ACCTCAGA,-0.183
ATCGGTTG,0.0296
GGCTATCA,0.0342
AGGCGTGA,-0.168
GATTTCCC,-0.115
CGTTACGA,-0.00898
CATCTCTC,-0.112
CCGCTTAC,-0.205
AGAAGCAA,0.108

# Set 2
# Target: RING finger protein unkempt homolog, zinc fingers 1-6, SBP tag (UNK, Homo sapiens, UniProt Q9C0B0, residues 30-357)
# Chain of UniProt Q9C0B0 (30-357, looked up): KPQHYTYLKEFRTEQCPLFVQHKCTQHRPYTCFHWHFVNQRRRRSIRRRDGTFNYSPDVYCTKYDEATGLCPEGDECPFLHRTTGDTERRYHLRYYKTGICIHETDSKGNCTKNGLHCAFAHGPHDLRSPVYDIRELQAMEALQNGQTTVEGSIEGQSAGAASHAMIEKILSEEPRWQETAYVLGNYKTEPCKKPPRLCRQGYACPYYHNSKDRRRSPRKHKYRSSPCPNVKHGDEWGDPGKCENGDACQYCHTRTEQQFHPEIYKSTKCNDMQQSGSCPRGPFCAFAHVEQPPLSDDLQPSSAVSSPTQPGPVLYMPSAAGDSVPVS
# Technique: RNA Bind-n-Seq
# Form: RNA
# Medium: in vitro
# Tested at: 100 nM
# Notes: RNA with constant flanks, vertebrate orthologous sites, ends assumed
# Baseline: input RNA pool
# Reading: higher = stronger binding
Oligonucleotide,bound/input enrichment [ratio]
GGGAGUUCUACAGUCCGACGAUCACUGCUGUUAAUGCACUGUUUCAGCCCUUUUAUGAGGUUAGUGUAAUCUAGGAGAUUUUAUAGUUUUAUUUUAAUGAAAACCGGAUUGAUGCACAGUAGUGGGAAGUACAUUGUCUUUUACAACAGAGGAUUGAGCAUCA,1.24
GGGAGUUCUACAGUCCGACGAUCUGGGUUACUCCUAUUAUUAUCAAGUAGCUGGAAUUGUGAAGGUCGGAGUAGUUAGAUCUUUAGCUUUUAUUCCUUAUUUUUUUUUGUAUUACUAUCCAUGUGUAUAAAUUAUUGAUCAUGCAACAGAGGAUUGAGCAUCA,4.61
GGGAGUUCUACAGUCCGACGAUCCCGAAAGGCCAAAUCCCCUCCUCCCUUCUCCUGCUUCUGCCAACCGGAAGCACAGAAAACUAGAACUUCAUUGAUUUUGUUUUUUAAAAGAUACACUGAUUUAACAUCUGAUAGGAAUGCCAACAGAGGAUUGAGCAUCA,0.657
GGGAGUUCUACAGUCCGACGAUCUUACAGUCAUUGAUGGACUCUAUUUUUUUAUUAUUACUUGGACCUUGGUCGUUUUUAUACUAGCAACGAAAAAUGUCUUGUUUUAAUUUGUUUUUUGGGGGGUGCGGGGUGGGAAGUGUCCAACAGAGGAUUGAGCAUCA,0.646
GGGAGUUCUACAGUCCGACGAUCGUGUUUUGUACAGGCCAUUCUCUGUACUAGUUUGUUGUGGUUAUAAAACAAUUAGCAGAAUAGCCUACAUUUGUAUUUAUUUUCUAUUCCAUACUUCUGCCCAUGUUGUUUUCUCUCAGUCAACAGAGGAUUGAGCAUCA,1.74
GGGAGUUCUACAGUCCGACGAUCCACUGACAGAUGAGCCACUCACGUCUGCCCGCGUGUGACGGAGGCAGCACUUGCCAGCCUGCAGGGUGGCUGCGGUACUUUUUCUGCUUCAGAGUCCCCAAAGCCUUCAAGCAGCGGGACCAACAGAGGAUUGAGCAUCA,0.319
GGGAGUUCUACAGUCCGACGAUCUGUGUUUUGGUACGACUCUAUGUACCAAUACUCAUCCUUUUUCAUGAUACCAACUAUCGCUAGAUGUAGGAGUUUAAUAUUUUUAAAAAUUUUACAUUGCUGUAUAUUCAAAAUUUUAAACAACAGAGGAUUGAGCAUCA,0.462
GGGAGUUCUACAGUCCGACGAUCUCUCUUGCUUAACUGUGUCCGAAGUUGCUAUGAGGAUUGGAAACAUUCAUUAGUUUCAUGUAGAACUACACUGGCAGGUGCUCAGUUCCCAUCAUAGCAAGAUCAAAUACCAUCACAGUACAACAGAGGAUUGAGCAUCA,0.64

# Set 3
# Target: RNA binding protein fox-1 homolog 2, RRM domain, GST-SBP tag (RBFOX2, Homo sapiens, UniProt O43251-10, residues 100-194)
# Technique: RNA Bind-n-Seq
# Form: RNA
# Medium: in vitro
# Tested at: 365 nM
# Notes: natural RNA segment, single round, ends assumed
# Baseline: no-protein control
# Reading: higher = stronger binding
# Target sequence (chain): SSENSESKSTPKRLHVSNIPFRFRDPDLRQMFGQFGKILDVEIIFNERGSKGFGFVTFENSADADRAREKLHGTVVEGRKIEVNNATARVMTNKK
Oligonucleotide,RBNS enrichment (R)
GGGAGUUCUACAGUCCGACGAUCUUUCGUUUGUUAAGAAACUGGAUUCUUUUCUCCUAACCAGUGCUUAAUUUGUGUUUUUGGAUUUUCUUUCAGAAGUAGUCAAAUGUCUAUGCUGUUACAUCCAGAAUAUUUGGAAUUCUCGGGUGCCAA,0.735
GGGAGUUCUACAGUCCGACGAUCGAAAGAAAAAAUACUUAUUUUUACAGAAAUUCUCCAGCAAUAUUUUUAAAAAUACCAACUUGUAUGCACUUUAGAAUGUAAAAUAACAGUGGAUACUUAAGACUCAAAGAUGGAAUUCUCGGGUGCCAA,1.38
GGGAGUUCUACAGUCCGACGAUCCCAUCUUGUGAAGCCCUGUUGUGCCCCACAGUGUAGCCAGGCCCCCUGCAGCUAGUCAUAGUGAAGCCCACCCUAAGGCCCUGUGAGCGCCAGCUCCCUCACAUGUACUUUGGAAUUCUCGGGUGCCAA,0.32
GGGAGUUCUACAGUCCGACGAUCUGGCCAGGACUGGUAGCAACAGAGCAUGGCUGAGAAGGAGCAGCGUGCUUCUUGGUGUCUGAGCAGACAGACCCUGCCAGAGUAAACUGGCUGAGGGGAGUGUCCAUCAUUGGAAUUCUCGGGUGCCAA,3.19
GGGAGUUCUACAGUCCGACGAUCUUGGCAUUUCUAAGUUCCUAGGUGAUGUUCUACUCACAGUCAGUCCAGAGGAUUACCUUAAGAGUCUCUGCAUUAAACUAGAAAAGUUGCACCUAGAAGGGACAGAGGGUUGGAAUUCUCGGGUGCCAA,0.69
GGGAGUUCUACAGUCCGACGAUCGUGUGAAGCUACCCUCAGGCUAUGUAGAUCAGAUGUAUAAAAAGCACAAAUGAAUAUCUCAAUUACAUUUGGGUUCCAUUCUCAAGAUAUUUUAUUAUGUAUAUUCAAUUUGGAAUUCUCGGGUGCCAA,0.459
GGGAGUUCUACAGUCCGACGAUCUCAUAGUGAGGUCUCCAGCUAUGUACAUGCCGUCAGUCCUCUGGUCUCUUGAAUGUAGCCCCACCCUGUAGGUCCUCUCAAAGCCAGAGCCCUGUUCUUAAAUUACUAGUUGGAAUUCUCGGGUGCCAA,0.345
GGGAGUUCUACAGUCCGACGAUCUGAGAUGGGGGCCUUGCAGCCCAGCACCCCCUCACUGCCAGCAGGGCACCAGGAGACAGGGUCCAGGAAUCCAGGUAUGCCUGUACUUGCUUGAGCAACGACUGAGGGCUUGGAAUUCUCGGGUGCCAA,0.727

# Set 4
# Target: Histone acetyltransferase KAT6A, winged helix 1, GST fusion (KAT6A, Homo sapiens, UniProt Q92794, residues 1-85)
# Technique: protein binding microarray
# Form: double-stranded DNA, one strand shown
# Medium: in vitro
# Tested at: not given
# Notes: 8-mer, flanks averaged, mean of 2 arrays, mostly near background
# Baseline: not given
# Reading: higher = stronger binding
# Residues (chain): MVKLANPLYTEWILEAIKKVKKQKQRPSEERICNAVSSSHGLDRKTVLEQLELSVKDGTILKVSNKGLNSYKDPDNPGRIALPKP
Oligonucleotide,E-score
CGTGACTC,-0.01
TCGGGTCA,0.259
CCGAAGCG,0.277
ATAACATC,-0.0505
GGTGGGTA,-0.05
CTGCCCCC,-0.0497
AAGGCGAA,0.0104
AGATACTA,0.0562
ACGAGAAG,-0.132
GCAGTACC,-0.0402
ACGTCTAT,-0.196
CGTTCTAC,0.0774
CCAGGGAC,-0.14
GAAAAGCA,-0.192
CTTCGTGC,-0.0134
ACATGTCG,-0.0267
ACGTGAGA,-0.194
CAAGAACC,-0.124
CTCTTCTA,-0.0349
CTCAGGCA,-0.136
ATCATCTG,-0.141
GTAACCGA,0.106
